Results from different studies.
Protocols differ between the studies behind these lines. Several values in a cell are separate wells, animals, samples, runs or records. ± gives the spread as reported.
MAPT PHF6* peptide: Microtubule-associated protein tau, PHF6* peptide (MAPT, Homo sapiens, UniProt P10636)
CASP10: Caspase-10 (CASP10, Homo sapiens, UniProt Q92851)
Sequence of UniProt Q92851 (whole entry, looked up): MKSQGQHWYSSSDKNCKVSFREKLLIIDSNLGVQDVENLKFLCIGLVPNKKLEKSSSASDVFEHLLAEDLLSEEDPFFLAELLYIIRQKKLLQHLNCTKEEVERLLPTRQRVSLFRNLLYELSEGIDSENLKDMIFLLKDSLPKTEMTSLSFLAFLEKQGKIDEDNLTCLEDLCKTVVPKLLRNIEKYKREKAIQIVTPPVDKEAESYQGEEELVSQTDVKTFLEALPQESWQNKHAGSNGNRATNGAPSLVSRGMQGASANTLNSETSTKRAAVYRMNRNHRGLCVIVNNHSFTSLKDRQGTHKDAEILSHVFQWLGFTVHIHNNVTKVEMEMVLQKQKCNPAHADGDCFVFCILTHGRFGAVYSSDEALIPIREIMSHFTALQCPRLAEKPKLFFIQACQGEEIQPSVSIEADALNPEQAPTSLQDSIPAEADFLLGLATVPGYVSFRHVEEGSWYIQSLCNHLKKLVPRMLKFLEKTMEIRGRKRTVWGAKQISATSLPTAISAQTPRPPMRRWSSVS
CASP8: Caspase-8 (CASP8, Homo sapiens, UniProt Q14790)
Sequence of UniProt P54619 (whole entry, looked up): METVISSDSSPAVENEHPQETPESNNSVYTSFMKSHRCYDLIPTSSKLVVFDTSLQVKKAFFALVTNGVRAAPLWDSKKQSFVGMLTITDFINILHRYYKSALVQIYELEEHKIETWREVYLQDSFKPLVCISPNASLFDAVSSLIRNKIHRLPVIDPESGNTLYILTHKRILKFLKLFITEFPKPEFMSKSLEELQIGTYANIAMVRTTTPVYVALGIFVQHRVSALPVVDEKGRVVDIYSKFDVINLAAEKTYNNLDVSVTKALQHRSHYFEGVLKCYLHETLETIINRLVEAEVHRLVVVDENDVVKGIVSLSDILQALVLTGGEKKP
Sequence of UniProt P35821 (whole entry, looked up): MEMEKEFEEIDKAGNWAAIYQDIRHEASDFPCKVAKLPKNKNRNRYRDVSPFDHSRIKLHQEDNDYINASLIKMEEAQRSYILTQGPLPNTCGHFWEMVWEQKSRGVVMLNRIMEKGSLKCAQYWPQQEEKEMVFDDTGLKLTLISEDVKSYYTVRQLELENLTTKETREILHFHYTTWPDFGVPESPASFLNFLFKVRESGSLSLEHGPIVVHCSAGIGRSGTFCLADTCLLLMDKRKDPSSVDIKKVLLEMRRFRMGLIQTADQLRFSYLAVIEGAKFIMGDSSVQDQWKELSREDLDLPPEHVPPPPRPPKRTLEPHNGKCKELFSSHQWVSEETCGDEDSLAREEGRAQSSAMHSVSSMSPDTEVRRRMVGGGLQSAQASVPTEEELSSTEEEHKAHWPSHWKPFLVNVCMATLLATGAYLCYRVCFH
Sequence of UniProt Q14790 (whole entry, looked up): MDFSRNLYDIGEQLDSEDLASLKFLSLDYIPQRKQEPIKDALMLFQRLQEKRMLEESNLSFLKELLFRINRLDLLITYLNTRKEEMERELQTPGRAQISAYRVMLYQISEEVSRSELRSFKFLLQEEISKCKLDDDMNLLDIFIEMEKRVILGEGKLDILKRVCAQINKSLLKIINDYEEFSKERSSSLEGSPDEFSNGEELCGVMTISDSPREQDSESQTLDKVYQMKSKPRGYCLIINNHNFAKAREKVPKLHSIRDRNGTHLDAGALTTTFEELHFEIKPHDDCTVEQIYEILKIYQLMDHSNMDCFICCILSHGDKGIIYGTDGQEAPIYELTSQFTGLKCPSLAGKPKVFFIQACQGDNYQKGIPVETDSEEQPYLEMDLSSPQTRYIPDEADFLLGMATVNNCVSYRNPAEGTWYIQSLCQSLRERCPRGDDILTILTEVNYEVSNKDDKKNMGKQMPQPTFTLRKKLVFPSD
Sequence of UniProt P25999 (whole entry, looked up): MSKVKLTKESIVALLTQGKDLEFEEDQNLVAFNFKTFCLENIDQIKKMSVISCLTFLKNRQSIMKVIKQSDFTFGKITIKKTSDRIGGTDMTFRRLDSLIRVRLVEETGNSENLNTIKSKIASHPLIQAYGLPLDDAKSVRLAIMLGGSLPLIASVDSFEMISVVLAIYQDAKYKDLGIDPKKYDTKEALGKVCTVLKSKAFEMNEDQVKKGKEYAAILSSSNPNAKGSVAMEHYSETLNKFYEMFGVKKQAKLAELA
Sequence of UniProt Q96C86 (whole entry, looked up): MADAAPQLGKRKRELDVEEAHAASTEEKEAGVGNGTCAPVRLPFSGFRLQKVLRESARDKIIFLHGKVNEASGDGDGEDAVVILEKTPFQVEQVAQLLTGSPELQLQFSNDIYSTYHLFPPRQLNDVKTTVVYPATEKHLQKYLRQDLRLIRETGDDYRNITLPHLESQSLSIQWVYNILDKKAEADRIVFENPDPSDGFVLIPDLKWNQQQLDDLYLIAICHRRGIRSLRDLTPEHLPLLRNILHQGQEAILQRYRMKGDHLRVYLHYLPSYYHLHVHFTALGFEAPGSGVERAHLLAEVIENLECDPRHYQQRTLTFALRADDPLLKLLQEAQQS
Sequence of UniProt P02454 (whole entry, looked up): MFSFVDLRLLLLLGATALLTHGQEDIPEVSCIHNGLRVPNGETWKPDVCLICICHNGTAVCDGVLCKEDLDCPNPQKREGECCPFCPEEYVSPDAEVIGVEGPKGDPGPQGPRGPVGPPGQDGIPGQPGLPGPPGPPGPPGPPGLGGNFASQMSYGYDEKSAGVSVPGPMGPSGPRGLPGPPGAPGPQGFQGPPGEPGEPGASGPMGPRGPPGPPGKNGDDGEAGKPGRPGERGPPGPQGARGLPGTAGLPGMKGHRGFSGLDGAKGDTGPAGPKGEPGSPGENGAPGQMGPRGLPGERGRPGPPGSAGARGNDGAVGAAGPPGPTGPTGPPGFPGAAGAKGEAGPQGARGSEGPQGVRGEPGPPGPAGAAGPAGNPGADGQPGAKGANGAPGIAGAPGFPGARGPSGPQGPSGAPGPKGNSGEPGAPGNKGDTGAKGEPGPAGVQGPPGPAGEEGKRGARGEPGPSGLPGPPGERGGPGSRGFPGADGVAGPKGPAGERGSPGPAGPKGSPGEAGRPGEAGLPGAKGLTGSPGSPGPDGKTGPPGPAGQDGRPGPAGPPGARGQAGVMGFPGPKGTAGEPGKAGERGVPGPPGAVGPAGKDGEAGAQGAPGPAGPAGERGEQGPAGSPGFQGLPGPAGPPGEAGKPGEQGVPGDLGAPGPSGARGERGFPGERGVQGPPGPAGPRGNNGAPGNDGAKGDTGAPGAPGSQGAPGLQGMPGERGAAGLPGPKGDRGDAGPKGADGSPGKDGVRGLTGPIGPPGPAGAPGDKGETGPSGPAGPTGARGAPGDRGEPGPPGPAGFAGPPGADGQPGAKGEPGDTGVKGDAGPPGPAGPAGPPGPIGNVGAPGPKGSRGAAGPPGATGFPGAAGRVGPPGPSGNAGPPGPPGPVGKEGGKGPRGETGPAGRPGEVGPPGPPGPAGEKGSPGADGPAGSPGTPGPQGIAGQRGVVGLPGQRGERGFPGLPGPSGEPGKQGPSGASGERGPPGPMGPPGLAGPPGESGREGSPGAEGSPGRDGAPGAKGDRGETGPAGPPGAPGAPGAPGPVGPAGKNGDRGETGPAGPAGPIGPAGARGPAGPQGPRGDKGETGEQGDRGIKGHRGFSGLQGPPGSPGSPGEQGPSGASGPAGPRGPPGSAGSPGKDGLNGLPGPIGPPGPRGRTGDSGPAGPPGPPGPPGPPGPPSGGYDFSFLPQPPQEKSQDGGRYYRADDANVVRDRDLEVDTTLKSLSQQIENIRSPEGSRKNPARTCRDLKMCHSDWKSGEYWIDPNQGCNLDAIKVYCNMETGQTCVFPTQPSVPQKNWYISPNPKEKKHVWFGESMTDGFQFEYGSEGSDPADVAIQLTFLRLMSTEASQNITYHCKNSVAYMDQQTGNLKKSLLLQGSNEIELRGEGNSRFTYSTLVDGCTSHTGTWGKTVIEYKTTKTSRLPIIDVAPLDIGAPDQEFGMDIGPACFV
Sequence of UniProt P45983 (whole entry, looked up): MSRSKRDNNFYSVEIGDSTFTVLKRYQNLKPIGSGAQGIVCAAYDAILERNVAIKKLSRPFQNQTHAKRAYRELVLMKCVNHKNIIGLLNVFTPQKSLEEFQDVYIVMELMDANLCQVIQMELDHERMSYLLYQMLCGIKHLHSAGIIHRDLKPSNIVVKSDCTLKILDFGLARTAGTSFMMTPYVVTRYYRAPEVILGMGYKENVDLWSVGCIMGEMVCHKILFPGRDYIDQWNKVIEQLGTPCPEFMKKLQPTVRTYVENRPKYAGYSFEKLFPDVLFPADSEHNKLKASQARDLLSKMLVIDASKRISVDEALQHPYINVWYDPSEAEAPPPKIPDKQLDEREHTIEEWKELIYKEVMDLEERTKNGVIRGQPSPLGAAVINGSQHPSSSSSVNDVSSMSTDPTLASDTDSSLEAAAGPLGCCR
Sequence of UniProt P57764 (whole entry, looked up): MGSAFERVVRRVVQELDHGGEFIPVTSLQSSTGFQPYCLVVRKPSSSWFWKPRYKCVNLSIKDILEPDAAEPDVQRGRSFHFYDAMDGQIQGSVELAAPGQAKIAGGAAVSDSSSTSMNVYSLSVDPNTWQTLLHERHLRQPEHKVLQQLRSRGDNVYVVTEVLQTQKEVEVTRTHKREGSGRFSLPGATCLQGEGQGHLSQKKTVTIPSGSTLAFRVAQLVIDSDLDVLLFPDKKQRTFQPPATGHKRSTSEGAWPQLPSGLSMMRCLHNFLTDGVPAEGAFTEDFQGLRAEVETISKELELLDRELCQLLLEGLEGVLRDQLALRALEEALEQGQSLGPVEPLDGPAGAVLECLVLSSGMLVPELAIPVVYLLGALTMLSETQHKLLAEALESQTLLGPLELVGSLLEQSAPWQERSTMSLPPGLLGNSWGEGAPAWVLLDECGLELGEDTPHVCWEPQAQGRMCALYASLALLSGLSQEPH

`C=CS(=O)(=O)c1ccc(Nc2nc(OCC3CCCCC3)c3nc[nH]c3n2)cc1` gave a kon of 1510 M⁻¹ s⁻¹ (Gasdermin-D (GSDMD, Homo sapiens, UniProt P57764); binding, BLI).
Under “normalised MST response”, `CN(C)CCCSC(=S)N1CCN(C(=O)/C=C/c2coc3ccccc3c2=O)CC1` is recorded as 0.021 (Nucleoprotein (N, Tomato spotted wilt virus, UniProt P25999); binding, microscale thermophoresis; 0.061 µM; dose series).
The agonist activity of `O=c1cc(Cn2ccnc2)c2cc(O)ccc2o1` is reported as 7.31 ± 0.74% (Alpha-1A adrenergic receptor (ADRA1A, Homo sapiens, UniProt P35348); intracellular Ca2+ mobilization, agonist; COS-7; 500 µM; reference: 3 µM ionomycin).
`Cc1cn(CC(=O)N(CC(=O)N[C@H]2COC[C@@H]2N(CC(=O)NCCOCCOCC(N)=O)C(=O)Cn2cnc3c(N)ncnc32)[C@H]2COC[C@@H]2NC(=O)CN(C(=O)Cn2cnc3c(N)ncnc32)[C@H]2COC[C@@H]2NC(=O)CN(C(=O)Cn2cnc3c(=O)[nH]c(N)nc32)[C@H]2COC[C@@H]2NC(=O)CN(C(=O)Cn2cc(C)c(=O)[nH]c2=O)[C@H]2COC[C@@H]2NC(=O)CN(C(=O)Cn2cnc3c(=O)[nH]c(N)nc32)[C@H]2COC[C@@H]2NC(=O)CN(C(=O)Cn2cc(C)c(=O)[nH]c2=O)[C@H]2COC[C@@H]2NC(=O)CN(C(=O)Cn2cnc3c(N)ncnc32)[C@H]2COC[C@@H]2NC(=O)CN(C(=O)Cn2cnc3c(=O)[nH]c(N)nc32)[C@H]2COC[C@@H]2N)c(=O)[nH]c1=O` has a ΔG of -19.6 ± 0.1 kcal/mol (complementary DNA; duplex formation, UV melting curve fit; PBS; 1 µM, 298 K).
The kon of `CSCC[C@@H]1NC(=O)[C@H](C(C)C)NC(=O)[C@H](CCCNC(=N)N)NC(=O)[C@@H]2CCCN2C(=O)CNC(=O)[C@@H](NC(=O)CNC(=O)[C@H](CO)NC(=O)CNC(=O)[C@H](CO)NC(=O)CCCC[C@@H]2SC[C@@H]3NC(=O)N[C@@H]32)CSSC[C@@H](C(N)=O)NC(=O)[C@@H]2CCCN2C(=O)CNC(=O)[C@H](CCC(=O)O)NC(=O)[C@H](CC(=O)O)NC(=O)[C@H](CC(=O)O)NC(=O)CNC(=O)[C@H](CC(C)C)NC(=O)[C@H](Cc2c[nH]cn2)NC(=O)[C@H](CC(C)C)NC(=O)CNC(=O)[C@H](Cc2c[nH]cn2)NC1=O` is reported as 11400 M⁻¹ s⁻¹ (Col1a1/Col1a2 (Rattus norvegicus, UniProt P02454+P02466); binding, bio-layer interferometry; biotinylated peptide on streptavidin biosensor; added: collagen 0 to 8 µM).
The ThT fluorescence of `CC[C@H](C)[C@H](NC(=O)[C@H](CCC(N)=O)NC(=O)[C@@H](NC(=O)[C@@H]1CCCN1[C@@H]1CN(C(=O)[C@H](CCCCN)NC(=O)[C@H](CC(N)=O)NC(=O)[C@@H](NC(=O)[C@@H](NC(=O)[C@H](CCC(N)=O)NC(=O)[C@@H](N)C(C)C)[C@@H](C)CC)[C@@H](C)CC)CC[C@H]1NS(=O)(=O)c1ccc(C)cc1)C(C)C)C(=O)N[C@H](C(=O)N[C@@H](Cc1ccc(O)cc1)C(=O)N[C@@H](CCCCN)C(N)=O)C(C)C` is reported as 17 ± 4% (MAPT PHF6* peptide; fibril formation, ThT fluorescence; 1-fold of peptide, pH 7.4, added: Ac-PHF6* 25 µM, heparin; reference: untreated).
`CC(=O)N[C@@H](CCC(C)C)C(=O)N[C@@H](CCCC(=O)O)C(=O)N[C@@H](CO)C(=O)N[C@@H](CC(=O)O)C(=O)COC(=O)c1c(C)cccc1C` gave a kinact/KI of 292000 M⁻¹ s⁻¹ (CASP10; enzyme activity, inhibitor).
`C#CCOC(=O)[C@]1(C)C=C(C(=O)OC(C)(C)C)C(=O)CC1`: “normalized kinase activity” 0.282 (Mitogen-activated protein kinase 8 (MAPK8, Homo sapiens, UniProt P45983); enzyme activity, D-SENSOR; 133.3 µM, mean of replicates).
With `CC1(C)C[C@@H](Nc2cccc(-c3sc(C(=O)O)c(OCC(=O)O)c3Cl)c2)CCN1S(=O)(=O)Cc1cccc(NC(=O)CN2CCC(c3ccc4c(c3)oc(=O)n4C3CCC(=O)NC3=O)CC2)c1` (some centres unmarked) the remaining protein was 112% and 99.4% (Tyrosine-protein phosphatase non-receptor type 1 (Mus musculus, UniProt P35821); degrader, Western blot; B16-F10; 0.0001 µM).
`CCN(CC)Cc1cc(-c2coc3cc(O)ccc3c2=O)ccc1Cl` gave a DHEA metabolism of 1.25 (3 beta-hydroxysteroid dehydrogenase/Delta 5-->4-isomerase type 1 (HSD3B1, Homo sapiens, UniProt P14060); [3H]-DHEA conversion; LNCaP; 0.1 µM, normalized to protein, unit not given; reference: vehicle).
`CC(=O)N[C@@H](CC(C)C)C(=O)N[C@H](C(=O)N[C@@H](Cc1ccc(O)cc1)C(=O)N[C@@H](CC(=O)O)C(=O)COC(=O)c1c(C)cccc1C)C(C)(C)C` gave a kinact/KI of 407000 M⁻¹ s⁻¹ (CASP10; enzyme activity, inhibitor).
`C[n+]1cn([C@@H]2O[C@H](COP(=O)(O)OP(=O)([O-])OP(=O)(O)OP(=O)(O)OC[C@H]3O[C@@H](n4cnc5c(=O)[nH]c(N)nc54)[C@H](O)[C@@H]3O)[C@@H](O)[C@H]2O)c2nc(N)nc(O)c21` gave a hydrolysis of 31 ± 0.8% (m7GpppX diphosphatase (DCPS, Homo sapiens, UniProt Q96C86); substrate, HPLC; concentration not given, 15 min).
`CC(=O)N[C@H](C(=O)N[C@@H](CCC(=O)O)C(=O)N[C@@H](CCCCN(C)C)C(=O)N[C@@H](CC(=O)O)C(=O)COC(=O)c1c(C)cccc1C)C(C)C` gave a kinact/KI of 63900 M⁻¹ s⁻¹ (CASP10; enzyme activity, inhibitor).
`CC[C@H](C)[C@H](NC(=O)[C@@H](NC(=O)[C@H](CCCCN)NC(=O)[C@@H](N)[C@@H](C)O)C(C)C)C(=O)N[C@@H](CC(C)C)C(=O)N[C@@H](Cc1c[nH]cn1)C(N)=O` gave a ThT fluorescence of 5 ± 1% (MAPT PHF6* peptide; fibril formation, ThT fluorescence; 5-fold of peptide, 240 min, pH 7.4, added: Ac-PHF6* 25 µM, heparin; reference: untreated).
For `CC(=O)N[C@@H](Cc1ccc(N)cc1)C(=O)N[C@@H](CCCC(=O)O)C(=O)N[C@@H](CC1CCCCC1)C(=O)N[C@@H](CC(=O)O)C(=O)COC(=O)c1c(C)cccc1C`, the kinact/KI was 374000 M⁻¹ s⁻¹ (CASP8; enzyme activity, inhibitor).
For `COC[C@@H]([C@H](O)[C@H](O)C(=O)NCC[C@H](C)c1nc(/C=C/C[C@@H]2O[C@]3(C[C@@H](O)[C@@H]2C)O[C@H]([C@H](C[C@H](O)[C@H](C)[C@H](O)[C@H](C)/C=C(C)/C(C)=C/C=C/C(C)=C\C#N)OC)[C@H](OP(=O)(O)OP(=O)(O)O)C3(C)C)co1)N(C)C`, the Km was 27.4 ± 2.94 µM (native CalL phosphatase; substrate).
`N[C@H]1CC[C@H](Nc2nccc(-c3cccnc3Oc3ccc(NC(=O)NC4CC4)c4ccccc34)n2)CC1` — result for “log2 LFQ intensity”: 27.8 and 28.2 and 28.1 (5'-AMP-activated protein kinase subunit gamma-1 (PRKAG1, Homo sapiens, UniProt P54619); kinobead competition pulldown; HEK293/HCT116 lysate mixture; 10 µM, 1 h, 4 °C; lower = stronger competition).
`CC(=O)N[C@@H](CCC(N)=O)C(=O)N[C@@H](CC(C)C)C(=O)N1CCC[C@H]1C(=O)N[C@@H](CC(=O)O)C(=O)COC(=O)c1c(C)cccc1C` has a kinact/KI of 14000 M⁻¹ s⁻¹ (CASP10; enzyme activity, inhibitor).
`N#Cc1cnc2sc(C(=O)O)cc2c1N1CCc2[nH]nc(C(=O)N[C@@H](CC(=O)NCCOCCN3CCOCC3)c3cccc(Br)c3)c2C1` has a remaining activity of 101% (Interleukin-1 receptor type 1 (IL1R1, Homo sapiens, UniProt P14778); SEAP reporter gene, antagonist; HEK-Blue IL-36R cells; 3.7 µM, 6 h, added: IL-1β 5 ng/mL; reference: untreated).
For `CC(=O)N[C@@H](CC(C)C)C(=O)N[C@@H](CCC(=O)O)C(=O)N[C@H](C(=O)N[C@@H](CC(=O)O)C(=O)COC(=O)c1c(C)cccc1C)C(C)C`, the kinact/KI was 377000 M⁻¹ s⁻¹ (CASP10; enzyme activity, inhibitor).
For `Fc1ccc(Nc2nc(NC3CCCCC3)c3ccccc3n2)cc1F`, the maximal inhibition was 6.8% (Beta-2 adrenergic receptor (ADRB2, Homo sapiens, UniProt P07550, I153L); β-arrestin2 recruitment, antagonist, BRET; mutant I153L; reference: isoprenaline maximal response).
With `CC[C@H](NC(=O)[C@@H](NC(=O)[C@@H](NC(C)=O)C(C)C)C(C)(C)C)C(=O)N[C@@H](CC(=O)O)C(=O)COC(=O)c1c(C)cccc1C` the kinact/KI was 1.51e+06 M⁻¹ s⁻¹ (CASP8; enzyme activity, inhibitor).
`CCCCCCCCCCCCC/C=C/C=O`: “isoTOP-ABPP competition ratio” 0.95 (Mannose-1-phosphate guanylyltransferase regulatory subunit alpha (GMPPA, Homo sapiens, UniProt Q96IJ6); competitive isoTOP-ABPP, measured: GMPPA cysteine peptide; Ramos soluble proteome; 100 µM, added: iodoacetamide probe; reference: DMSO over compound-treated, higher = stronger cysteine blockade).

Excerpt of the above:
For `COC[C@@H]([C@H](O)[C@H](O)C(=O)NCC[C@H](C)c1nc(/C=C/C[C@@H]2O[C@]3(C[C@@H](O)[C@@H]2C)O[C@H]([C@H](C[C@H](O)[C@H](C)[C@H](O)[C@H](C)/C=C(C)/C(C)=C/C=C/C(C)=C\C#N)OC)[C@H](OP(=O)(O)OP(=O)(O)O)C3(C)C)co1)N(C)C`, the Km was 27.4 ± 2.94 µM (native CalL phosphatase; substrate).
`N[C@H]1CC[C@H](Nc2nccc(-c3cccnc3Oc3ccc(NC(=O)NC4CC4)c4ccccc34)n2)CC1` — result for “log2 LFQ intensity”: 27.8 and 28.2 and 28.1 (5'-AMP-activated protein kinase subunit gamma-1 (PRKAG1, Homo sapiens, UniProt P54619); kinobead competition pulldown; HEK293/HCT116 lysate mixture; 10 µM, 1 h, 4 °C; lower = stronger competition).
`CC(=O)N[C@@H](CCC(N)=O)C(=O)N[C@@H](CC(C)C)C(=O)N1CCC[C@H]1C(=O)N[C@@H](CC(=O)O)C(=O)COC(=O)c1c(C)cccc1C` has a kinact/KI of 14000 M⁻¹ s⁻¹ (CASP10; enzyme activity, inhibitor).
